# Measured values of several laboratories.
# A part holds a random share of what one study measured. Values joined by “and” are separate records of one study, mostly repeats; a detail may differ.

# Set 1 — read-out: viral replication; concentration: 10 µM
# Organism: Severe acute respiratory syndrome coronavirus 2
SMILES,inhibition [%]
Cc1cccc(NC(=O)CS(=O)(=O)c2nc(-c3ccccc3)cn2-c2ccc(Cl)cc2)c1C,92
Cc1cccc(-c2[nH]c(C(C)(C)C)nc2-c2ccc3c(c2)OCO3)n1,61
O=C(NCC(F)(F)F)c1ccc(CN(Cc2cc(Cl)cc3c2OCOC3)C2CC2)cc1,41
CS(=O)(=O)c1ncc(Cl)c(C(=O)N2CCN(C(c3ccccc3)c3ccccc3)CC2)n1,66
COc1ccc(NC(=O)N2c3ccccc3CC2c2nc(C(C)C)no2)c(C)c1 (stereo not drawn),55
Clc1cc2c(c3ncccc13)OCN(C1CCCC1)C2,72
CCCN(CCC)c1nc(N)ncc1[N+](=O)[O-],53
C=C(C#N)CN1CCN(CC(=C)C#N)CC1,59
Cc1ccc(-c2cc(O)c3c(c2)CN(C(=O)Nc2ccccc2)CCO3)s1,67
CC(=O)c1cc2cc3c4c(c2oc1=O)CCCN4CCC3,84
Cc1nc2cc(-c3cccc4ccnn34)ccc2s1,84
N=C(N)Nc1ccc(C(=O)Oc2ccc3cc(C(=N)N)ccc3c2)cc1,82
Cc1ccccc1CN1C[C@@H]2C[C@@H](c3cc4ccccc4o3)N3CCC[C@@]23C1=O,48
O=C(NC1CCCCCC1)c1ccc(-c2ccc(F)cc2)nc1,52
N#Cc1c(Cl)c(Cl)c(Cl)c(Cl)c1C#N,89
N#CC(C#N)=C/C=C(/Sc1ncc(C(F)(F)F)cc1Cl)c1ccc(Cl)cc1,53
O=C(NC1CCN(Cc2ccccc2)CC1)c1cc2c(=O)n(Cc3ccccc3)ccc2s1,57
c1ccc(Nc2nccc(-c3ccncc3)n2)cc1,58
CC[C@@]1(O)C(=O)OCc2c1cc1n(c2=O)Cc2cc3cc(O)ccc3nc2-1,61
CCCCN1COc2c(cc(Cl)c3cccnc23)C1,81
CNC(=O)C(C#N)(Cc1cc(Cl)cc2c1OCOC2)Cc1cc(Cl)cc2c1OCOC2,80

# Mixed results
# Matrix protein 2 S31N: Matrix protein 2 (Influenza A virus, UniProt P0DOF5, S31N)
# rep papain-like protease: Replicase polyprotein 1ab, papain-like protease (rep, Severe acute respiratory syndrome coronavirus 2, UniProt P0DTD1)
# Replicase polyprotein 1a P3395H main protease: Replicase polyprotein 1a, main protease (Severe acute respiratory syndrome coronavirus 2, UniProt P0DTC1, P3395H)
Structure (SMILES),tested on,assay,test system,setting,scale,measurement,value
COc1c(N2C[C@@H]3CCCN[C@@H]3C2)c(F)cc2c(=O)c(C(=O)O)cn(C3CC3)c12,Mycobacterium tuberculosis,,H37Rv katG deletion,,,MIC,0.06 µg/mL
C1=CC2C3C4C5C=CC4C24CNCC54C13.Cl,Matrix protein 2 S31N,,,"concentration not given, pH 5.5, cell-based",,inhibition,0%
NNC(=O)c1ccncc1,Mycobacterium tuberculosis,,H37Rv katG deletion,,,MIC,> 2 µg/mL
N[C@@H](CC(=O)N1CCn2c(nnc2C(F)(F)F)C1)Cc1cc(F)c(F)cc1F,SARS-CoV-2,viral replication,"Vero E6, B.1.617.2 (Delta)",48 h,,IC50,1840 nM
CN(C)C(=O)COC(=O)Cc1ccc(OC(=O)c2ccc(NC(=N)N)cc2)cc1,Calu-3,pseudoparticle entry,SARS-CoV-2 spike pseudotyped particles,,,IC50,90 nM
Oc1cc(Cl)ccc1Oc1ccc(Cl)cc1Cl,Mycobacterium tuberculosis,,V2475,,,MIC,25 µg/mL
CCOc1ccccc1OC(c1ccccc1)C1CNCCO1 (stereo not drawn),"Replicase polyprotein 1ab, main protease (rep, Severe acute respiratory syndrome coronavirus 2, UniProt P0DTD1)","enzyme activity, activator, FRET peptide cleavage",SARS-CoV-2,1 mM,,activation,> 15%
CCOC(=O)[C@@H](Cc1ccc(O)c(O)c1)OC(=O)/C=C/c1ccc(O)c(O)c1,rep papain-like protease,,,"concentration not given, C111S mutant",reference: positive control,activity,29.9%
CO[C@H]1/C=C/O[C@@]2(C)Oc3c(C)c(O)c4c(O)c(c(/C=N/N5CCN(C)CC5)c(O)c4c3C2=O)NC(=O)/C(C)=C\C=C\[C@H](C)[C@H](O)[C@@H](C)[C@@H](O)[C@@H](C)[C@H](OC(C)=O)[C@@H]1C,Mycobacterium tuberculosis,,H37Rv mc2-6206 MmpL3 L567P,,,MIC80,0.076 µM
CC(C)(C)[C@H](NC(=O)C(F)(F)F)C(=O)N1C[C@H]2[C@@H]([C@H]1C(=O)N[C@H](C#N)C[C@@H]1CCNC1=O)C2(C)C,SARS-CoV-2,viral replication,"VeroE6/TMPRSS2, Omicron variants",2.7 µM,,inhibition,99.9%
CCCCCCC#Cc1cncc(-c2nnc(SCc3ccc(Cl)cc3)n2C)c1,Mycobacterium tuberculosis,MABA,Erdman M3 FbiC P367S mutant,,,IC50,4600 nM
CC(C)(C)[C@H](NC(=O)C(F)(F)F)C(=O)N1C[C@H]2[C@@H]([C@H]1C(=O)N[C@H](C#N)C[C@@H]1CCNC1=O)C2(C)C,Replicase polyprotein 1a P3395H main protease,binding,SARS-CoV-2,concentration not given,,thermal shift (ΔTm),18.6 °C
C[C@H](CCC(=O)NCCS(=O)(=O)[O-])[C@H]1CC[C@H]2[C@@H]3[C@@H](O)C[C@@H]4C[C@H](O)CC[C@]4(C)[C@H]3CC[C@]12C.[Na+],rep papain-like protease,,,"concentration not given, C111S mutant",reference: positive control,activity,19.3%
CCOC(=O)C1=C[C@@H](OC(CC)CC)[C@H](NC(C)=O)[C@@H](N)C1,influenza virus,,compound-resistant,,,EC50,> 10000 nM
C1CC2C3C4C5CCC4C24CNCC54C13.Cl,Matrix protein 2 S31N,,,"concentration not given, pH 5.5, cell-based",,inhibition,0%
Nc1ncnc2c1ncn2[C@@H]1O[C@H](CO)C[C@H]1O,SARS-CoV-2 Omicron,,Huh-7,"concentration not given, 3 h, unit not given",reference: DMSO,viral RNA level,0.285 and 0.261 and 0.277
COC(=O)[C@H](Cc1cccc(C(=N)N)c1)[C@@H](C)NC(=O)c1ccc(-c2cc[n+]([O-])cc2)cc1,Calu-3,pseudoparticle entry,SARS-CoV-2 spike pseudotyped particles,,,IC50,15800 nM
CC(C)(C)[C@H](NC(=O)C(F)(F)F)C(=O)N1C[C@H]2[C@@H]([C@H]1C(=O)N[C@H](C#N)C[C@@H]1CCNC1=O)C2(C)C,SARS-CoV-2,"viral replication, replicon",S4145N Mpro cleavage-site mutant,,,EC50,5 nM
CN(C)CCn1c(C(=O)N2CCN(c3ccccc3Cl)CC2)c(C(c2ccc(O)cc2)c2ccc(O)cc2)c2ccccc21,SARS-CoV-2,viral replication,"Huh-7-ACE2, USA-WA1/2020",,,EC90,1640 nM
Cn1cnc(Cn2c(=O)[nH]/c(=N\c3cc4cn(C)nc4cc3Cl)n(Cc3cc(F)c(F)cc3F)c2=O)n1,Replicase polyprotein 1a P3395H main protease,binding,SARS-CoV-2,concentration not given,,thermal shift (ΔTm),14.2 °C
CC#CCn1c(N2CCC[C@@H](N)C2)nc2c1c(=O)n(Cc1nc(C)c3ccccc3n1)c(=O)n2C,SARS-CoV-2,viral replication,"Vero E6, B.1.1.7 (Alpha)",48 h,,IC50,1950 nM

# A few entries again (set 1):
SMILES,inhibition [%]
CCCN(CCC)c1nc(N)ncc1[N+](=O)[O-],53
CNC(=O)C(C#N)(Cc1cc(Cl)cc2c1OCOC2)Cc1cc(Cl)cc2c1OCOC2,80
CS(=O)(=O)c1ncc(Cl)c(C(=O)N2CCN(C(c3ccccc3)c3ccccc3)CC2)n1,66
